Published values from different studies.
A part holds a random share of what one study measured. Substitutions count along the parent as printed.

Block 1
Target: CREBRF, bZIP domain (human)
Technique: DHFR protein complementation
Matrix: yeast
Setting: single substitutions, most at no-binding floor
Reference: wild-type JUN-FOS pair
Direction: higher = stronger binding
Endpoint: binding fitness
Starting sequence: JUN, bZIP domain (human); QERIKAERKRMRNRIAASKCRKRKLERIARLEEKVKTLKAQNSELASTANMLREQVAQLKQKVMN; partner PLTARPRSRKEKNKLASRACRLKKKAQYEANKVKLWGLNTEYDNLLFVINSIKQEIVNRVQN
A40E: -1.48 natural log
K39M: -1.52 natural log
K36R: -1.45 natural log
K39V: -1.48 natural log

Block 2
Target: Interferon regulatory factor 5, full length, phosphomimetic (IRF5, Homo sapiens, UniProt Q13568-2, residues 1-514, K96S/S451D/S453D/S456D/S462D)
Technique: protein-binding microarray
Molecule type: double-stranded DNA, one strand shown
Matrix: in vitro
Tested at: 250 nM
Setting: 60-bp whole probe
Together with: salmon DNA 0.4 mg/ml
Reference: random background probes
Direction: higher = stronger binding
Endpoint: log fluorescence
GCCTAGCACGCCTACTCGCTCGTCCGGAGGTGCTAGGTCTTGATTCGCTTGACGCTGCTG: -0.306 z-score
GCCTAGCACTTAGATTTCAGTTTCGATTTGTGCTAGGTCTTGATTCGCTTGACGCTGCTG: 9.48 z-score
GCCTAGCACTTAGATCTCAGTTTCGAATAGTGCTAGGTCTTGATTCGCTTGACGCTGCTG: 5.22 z-score
GCCTAGCACGACGATTTCGTGACTGGAGACGTGCTAGTCTTGATTCGCTTGACGCTGCTG: 0.511 z-score

Block 3
Target: Histone acetyltransferase KAT6A, winged helix 2, GST fusion (KAT6A, Homo sapiens, UniProt Q92794, residues 85-181)
Technique: protein binding microarray
Molecule type: double-stranded DNA, one strand shown
Matrix: in vitro
Tested at: not given
Setting: 8-mer, flanks averaged, mean of 2 arrays, mostly near background
Reference: not given
Direction: higher = stronger binding
Endpoint: E-score
Construct (chain): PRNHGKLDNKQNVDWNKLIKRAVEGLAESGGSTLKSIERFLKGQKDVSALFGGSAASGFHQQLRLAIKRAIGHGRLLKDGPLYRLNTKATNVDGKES
CTATCCCC: -0.0466
GCCCTACC: 0.0898
GACAAGGC: 0.0944
ATTGCGAA: -0.0334
CACGCCTG: -0.0017
CCCGCTAG: 0.175

Mixed results
PhoQ, residues 284 288 289 292 302 303 SVHLDV  fold induction (PhoP, residues 12 14 15 18 19 SQCLL (Escherichia coli, UniProt P23836); Sort-seq, item: YFP reporter; E. coli; PhoQ-PhoP variant library, together with: 10 µM Mg2+; reference: high Mg2+ state, higher = stronger signaling): 15.8
